Results from different studies.
Numbered parts are unrelated; each lists some results of a single study.

Study 1
Target: RNA binding protein fox-1 homolog 2, RRM domain, GST-SBP tag (RBFOX2, Homo sapiens, UniProt O43251-10, residues 100-194)
Technique: RNA Bind-n-Seq
Form: RNA
Sample: in vitro
Concentration: 365 nM
Setting: natural RNA segment, single round, ends assumed
Reference: no-protein control
Reading: higher = stronger binding
All sequences stand within: GGGAGUUCUACAGUCCGACGAUC … UGGAAUUCUCGGGUGCCAA
Construct (chain): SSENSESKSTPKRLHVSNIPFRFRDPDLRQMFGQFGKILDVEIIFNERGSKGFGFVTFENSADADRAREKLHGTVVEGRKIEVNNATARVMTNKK
| Oligonucleotide | RBNS enrichment (R) |
| --- | --- |
| ACUGUGCUGGGGUUUGUUGUGAUGGCCACUCGGUGACCUGGCGGUCCCUACGCAAUAGCAGCUGCCUGUGGGGAAGAAGGGCUGCCCAGCCAGCUGGUUCUCCCGGGACA | 0.378 |
| GAAAGCUUCCCUGCAAUCUUGGGGUUUGGCUUUAGUUUUCUUUUCCUUGAUUUCUCAGUAGGUGCUAGAAUCCAGUUCACACCCUUCACUGUGCGUGCAGACACACUGAC | 0.359 |
| GACUCACCAUGGGCUGCUGGGGUGUCGGGAGAAGCCACACCCAACAUGCCCAUUAGCAGAGGCUGCUGCUGAUGUGGCAGCUGCUCCCUACCACCCGCCCUGGCUCCCCA | 0.444 |
| AUUUGACACCAAUAUGGGCAAAAUUAGAUAACCUUUUGGUUAAUAUAAAUGAUUUUGAUUUGGAGGCCUAAUUUGUAGAUUGUGAAAGCAGCUUUUAGUUUAACUUAUUC | 0.919 |
| UAAUGUUCUUUCUUCACAGCCGCUCCGGGAAUUCUGAAGUUCUGGGCCUUUCUCAGAAGACUGUAAUGUACCUGAAGUUUCUGAAAUAUUGCAAACCCACAGAGUUUAGG | 0.643 |
| UGUGCUGUACACCCCGUUAGUCCCUGAUCCCAACCUUCUCCCUCCUGCCAGCACACCGAUGCACACACCGGAAGUGGCGAGCCCAAGCCCUGGGGACAGGUGUAGGGAGA | 1.22 |
| GCGCGAGUGCGUGUGAGAAGAACCGACCCACCCCGCGCAAGGGGAAGCCUCCUGUCUCCCCUUUCCCCGCGUCCGAGAAGGCGGAAACCCACAGUGUUACCUGACUUAUG | 0.214 |
| CCAUGUCACAGAAAAGGUGAAACUAUUAGAUGCUGUUUAGAAAGCAUUUAUCUUGCAUUUCUUUAUUCUUUCUAAUUACCUAAAAUUCAAUAAAAGUUUAUUCAUAUAAA | 0.791 |
| UGCUGGGUCCUGUCUCUUUUGACUAAUAUUUUCGUAAACAUUAGGCUGGAGAAAGGAAGGAAGCAGUGGUUUCCUUAGAUAACUACAGAAUUAUACUGGUCUCUGGGAUU | 0.227 |
| AAGUAUGGUAAUCUUUACCUGUAUACAGUGCAGAGCCUUCUCAGAAGCACAGAAUAUUUUUAUAUUUCCUUUAUGUGAAUUUUUAAGCUGCAAAUCUGAUGGCCUUAAUU | 0.283 |
| UUUAUACUGUUCACUGUACAAAAGCUUACAGUUUUCCACAAGGACUUUAAUAACUAGCUGGGGAAAAGAUUAUGUAAUUACUUGGGGCUCUGCAGGACCUUCUCUGUCCA | 0.45 |
| UCCCCUGCUUAACUGCAGCCUGGAUAGCUGAGCUGCUGCUGAGGGCACGCCGUGCGCGACGGCUGACCUGGCAGCGUAGAGUGGGAUGAUCUAAAACUAAAGCUGCCUGU | 0.513 |

Study 2
Target: Histone acetyltransferase KAT6A, winged helix 2, GST fusion (KAT6A, Homo sapiens, UniProt Q92794, residues 85-181)
Technique: protein binding microarray
Form: double-stranded DNA, one strand shown
Sample: in vitro
Concentration: not given
Setting: 8-mer, flanks averaged, mean of 2 arrays, mostly near background
Reference: not given
Reading: higher = stronger binding
Target sequence (chain): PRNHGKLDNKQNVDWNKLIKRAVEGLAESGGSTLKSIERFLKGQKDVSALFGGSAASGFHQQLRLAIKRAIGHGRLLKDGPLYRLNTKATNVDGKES
| Oligonucleotide | E-score |
| --- | --- |
| AAGTGTCA | -0.166 |
| AAGCCTCG | 0.0569 |
| CAGGGGGC | 0.256 |
| CACAGTAG | -0.0752 |
| CGGTGGGC | 0.0918 |
| ATGGAATG | 0.000865 |
| ATCCGGAG | 0.211 |
| ATCTTCGA | -0.0175 |
| CTCACGAG | 0.0885 |
| ACGTTCTG | -0.0143 |
| ACGTTGAT | -0.0281 |
| AGGACCAA | -0.0697 |
| AACCCGTC | -0.125 |
| CGAAGATC | -0.0481 |
| CATGAATA | -0.193 |
| TCCGGGCA | 0.143 |
| ACCACGCC | -0.0639 |

Study 3
Target: Ras GTPase-activating protein-binding protein 1, full length (G3BP1, Homo sapiens, UniProt Q13283)
Chain of UniProt Q13283 (whole entry, looked up): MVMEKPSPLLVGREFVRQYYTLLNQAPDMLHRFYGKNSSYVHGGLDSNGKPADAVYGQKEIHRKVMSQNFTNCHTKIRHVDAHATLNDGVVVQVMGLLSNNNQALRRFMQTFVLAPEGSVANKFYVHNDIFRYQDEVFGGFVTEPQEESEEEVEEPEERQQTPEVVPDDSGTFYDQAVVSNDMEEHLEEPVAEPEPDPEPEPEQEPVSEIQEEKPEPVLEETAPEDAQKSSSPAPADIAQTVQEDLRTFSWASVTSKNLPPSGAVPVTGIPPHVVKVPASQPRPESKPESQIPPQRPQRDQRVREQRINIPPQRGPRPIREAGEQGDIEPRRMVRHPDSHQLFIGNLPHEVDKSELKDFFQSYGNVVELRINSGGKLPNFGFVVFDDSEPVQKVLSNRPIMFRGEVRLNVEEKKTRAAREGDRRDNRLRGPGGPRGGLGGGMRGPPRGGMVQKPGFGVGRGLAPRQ
Technique: RNA Bind-n-Seq
Form: RNA
Sample: in vitro
Concentration: 200 nM
Setting: whole 134-nt RNA, ends assumed
With: 150 mM KCl
Reference: input library
Reading: higher = stronger binding
All sequences stand within: GGGAGUUCUACAGUCCGACGAUC … UGGAAUUCUCGGGUGUCAAGG
| Oligonucleotide | log2 enrichment |
| --- | --- |
| UUGCGAAAAGGACCAAUUCCAGUGCCGGAACGAGCGCUGCAUCCCCUCUGUGUGGAGAUGCGACGAGGACGAUGACUGCUUAGACCACAG | -0.242 |
| UGGACAGGUUGCUGGACCCCGCCAACAGAGCCCACCUGGGCCUGGAGGAGCAGCUGAGAGAGCUGCUGGACAUGCUCGACCUCACCUGCG | -0.534 |
| CACAGACAAUACGCACCCACACAGACACAGAGGGAAGGGGUUGGGAUGGGGACAGGGUGCACAGCAGGGCGGGGUAGGACCCCAGCCCCU | 1.94 |
| AAGUCCUGUGCUACACAUCGUAUGUACCGAAUCGGAAAAAGGUUUGGAAAAAAAGGAAAGUAUUAUGUUACGCCGUUCGGAUCUGCACUU | -1.52 |
| AGUCCUGUGCUACACAUCGUAUGUACCGAAUCGGGGAGGGGUGGGGAAAAAAAGGGGAAAGUAUUAUGUUACGCCGUUCGGAUCUGCACU | 0.553 |
| GCAGGAAGUAAAACCAAAUGGAAAUGCUUCGGAUAGUGGCAGGGGUGGGGGUUGCUAAGGAAAGGGUGGGAUGGGAGUGGGUAAAGAGUU | 1.51 |
| UCAAGUCCUGUGCUACACAUCGUAUGUACCGAAUCGGGAAGGGGAAGGGGAAGGGAAAGUAUUAUGUUACGCCGUUCGGAUCUGCACUUC | 1.07 |
| UGGCCCUGGUGGCAUGCGGGGAGGAAGAGGUGGCCUCAUGGAUCGUGGUGGUCCCGGUGGAAUGUUCAGAGGUGGCCGUGGUGGAGAUAG | 0.336 |
| UAACUUUAGAGGAGGAUCUGAUGGAUAUGGCAGUGGACGUGGAUUUGGGGAUGUCUAUAAUGGGUAUGGAGGAGGACCUGGAGGUGGCAA | 0.381 |
| UGGCCCUGGUGGCAUGCGGGGAGGAAGAGGUGGCCUCAUGGAUCGUGGUGGUCCCGAUGGAAUGUUCAGAGGUGGCCGUGGUGGAGACAG | 0.0816 |
| UAACUUUAGAGGAGGAUAUGAUGGAUAUGGCAGUGGACGUGGAUUUGGGGAUGGCUAUAAUGGGUAUGGAGGAGGACCUGGAGGUGGCAA | 0.484 |
| UCAAGUCCUGUGCUACACAUCGUAUGUACCGAAUCGGGUUUGGGUUUGGUUUGGAAAGUAUUAUGUUACGCCGUUCGGAUCUGCACUUCC | -0.428 |
| UGGCCCUGGUGGCAUGCGGGGAGGAAGAGGUGGCCUCAUGGAUCGUGGUGGUCCCGGUGCAAUGUUCAGAGGUGGCCGUGGUGGAGACAG | -0.0405 |
| CUGUGCUACACAUCGUAUGUACCGAAUCGGGGAAAAAAAGGAAAAAAAGGGAAAAAAAGGGGAAAGUAUUAUGUUACGCCGUUCGGAUCU | -0.617 |

Study 4
Target: PABPC1L2, full length, GST fusion (mouse, UniProt A0ABA7IW68)
Technique: RNAcompete
Form: RNA
Sample: in vitro
Concentration: 20 nM
Setting: 7-mer, probes averaged, single round
Reference: mean of 7-mers
Reading: higher = stronger binding
Residues (chain): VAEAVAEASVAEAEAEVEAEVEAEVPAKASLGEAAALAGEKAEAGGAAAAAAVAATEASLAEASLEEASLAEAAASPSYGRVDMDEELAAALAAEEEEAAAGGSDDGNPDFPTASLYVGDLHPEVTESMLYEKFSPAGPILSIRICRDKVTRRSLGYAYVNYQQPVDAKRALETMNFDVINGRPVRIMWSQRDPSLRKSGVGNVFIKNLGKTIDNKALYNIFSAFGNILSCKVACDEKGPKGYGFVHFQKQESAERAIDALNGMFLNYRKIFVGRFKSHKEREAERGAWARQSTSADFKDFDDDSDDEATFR
| Oligonucleotide | 7-mer Z-score |
| --- | --- |
| GGAUUGU | -0.11 |
| GACCAUC | -0.269 |
| CUGUGCC | -0.351 |
| GCAGCCA | -0.0591 |
| UUUUCUG | -0.371 |
| CUCUAGC | -0.277 |
| AUCUAUC | -0.206 |
| UGUGAUC | -0.286 |
| ACUUUCA | -0.108 |
| UUUCCCC | -0.418 |
| UCGCGAC | -0.307 |
| UUAGAAG | 0.0388 |
| UCUUGUA | -0.423 |
| AGUGCUC | -0.374 |
| CAGUACA | 0.131 |
| CGGCGAC | 0.066 |
| AUGAAAU | 0.144 |
| GCAGAGA | 0.102 |
| GUCAAUU | -0.209 |
| UGCUCUG | -0.32 |
| CCCUCCU | -0.449 |
| UCCCGAA | -0.0899 |
| CAGGUAC | -0.0428 |
| UCGUAUU | -0.333 |
| GUAAAGU | 0.35 |

Study 5
Target: Protein C-ets-1 (ETS1, Homo sapiens, UniProt P14921, residues 1-441, K379A, full length assumed)
Chain of UniProt P14921 (whole entry, unmodified, looked up): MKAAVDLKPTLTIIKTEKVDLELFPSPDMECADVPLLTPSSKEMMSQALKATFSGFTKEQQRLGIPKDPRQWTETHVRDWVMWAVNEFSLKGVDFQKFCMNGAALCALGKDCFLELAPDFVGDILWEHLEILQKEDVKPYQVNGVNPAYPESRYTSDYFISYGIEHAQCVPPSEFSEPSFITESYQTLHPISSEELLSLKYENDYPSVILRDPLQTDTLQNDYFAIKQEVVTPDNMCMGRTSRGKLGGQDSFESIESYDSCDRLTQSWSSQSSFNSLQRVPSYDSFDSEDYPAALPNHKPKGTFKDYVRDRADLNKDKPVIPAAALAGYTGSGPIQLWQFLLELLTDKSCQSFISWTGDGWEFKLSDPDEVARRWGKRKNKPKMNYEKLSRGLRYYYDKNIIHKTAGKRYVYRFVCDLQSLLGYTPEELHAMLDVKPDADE
Technique: protein-binding microarray
Form: double-stranded DNA, one strand shown
Sample: in vitro
Concentration: not given
Setting: k-mer, scored over probes, only values ≥0.25
Reading: higher = stronger binding
| Oligonucleotide | E-score |
| --- | --- |
| CATACCGC | 0.252 |
| ATTTACCC | 0.254 |
| GCGGAAGC | 0.256 |
| ACCGGGAG | 0.447 |
| GAATCACA | 0.292 |
| ACCGGCGG | 0.415 |
| CCGGATAC | 0.383 |
| CACCGGCG | 0.391 |
| ATGTCACA | 0.278 |
| CCGGAACG | 0.408 |
| GACGTTGA | 0.283 |
| ACCGGAGC | 0.341 |
| ACCACATA | 0.275 |
| TACACCGA | 0.253 |
| CGGCACCG | 0.263 |
| AAGACCGG | 0.418 |

Study 6
Target: Sal-like protein 4, full length isoform A (SALL4, Homo sapiens, UniProt Q9UJQ4, residues 1-1053)
Chain of UniProt Q9UJQ4 (whole entry, looked up): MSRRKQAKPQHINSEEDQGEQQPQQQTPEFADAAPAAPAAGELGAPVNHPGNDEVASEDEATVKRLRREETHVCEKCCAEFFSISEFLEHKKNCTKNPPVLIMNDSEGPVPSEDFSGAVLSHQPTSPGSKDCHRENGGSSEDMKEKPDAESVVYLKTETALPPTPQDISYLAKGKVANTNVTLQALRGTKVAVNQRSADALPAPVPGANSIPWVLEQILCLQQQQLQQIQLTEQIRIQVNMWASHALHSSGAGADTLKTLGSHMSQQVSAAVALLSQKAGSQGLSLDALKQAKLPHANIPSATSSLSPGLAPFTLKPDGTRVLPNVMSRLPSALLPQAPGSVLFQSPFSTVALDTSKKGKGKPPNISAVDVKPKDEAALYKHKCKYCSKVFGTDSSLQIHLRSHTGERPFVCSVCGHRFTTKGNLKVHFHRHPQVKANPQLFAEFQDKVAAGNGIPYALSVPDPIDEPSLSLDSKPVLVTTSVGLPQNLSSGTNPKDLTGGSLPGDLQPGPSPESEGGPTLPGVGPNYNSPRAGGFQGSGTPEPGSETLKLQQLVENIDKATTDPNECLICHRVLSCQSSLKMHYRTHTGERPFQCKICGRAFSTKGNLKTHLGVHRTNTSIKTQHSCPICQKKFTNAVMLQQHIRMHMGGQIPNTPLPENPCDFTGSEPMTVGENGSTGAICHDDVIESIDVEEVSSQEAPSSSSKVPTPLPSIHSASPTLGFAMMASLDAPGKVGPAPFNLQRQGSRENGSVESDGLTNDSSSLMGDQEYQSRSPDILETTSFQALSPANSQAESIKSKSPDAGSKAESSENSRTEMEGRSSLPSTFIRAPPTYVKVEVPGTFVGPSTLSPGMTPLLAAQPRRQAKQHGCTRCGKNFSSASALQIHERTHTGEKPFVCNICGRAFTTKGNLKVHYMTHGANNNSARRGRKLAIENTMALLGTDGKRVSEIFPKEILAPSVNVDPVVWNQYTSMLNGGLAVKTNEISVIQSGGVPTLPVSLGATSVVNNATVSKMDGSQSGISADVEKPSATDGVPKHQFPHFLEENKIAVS
Technique: universal PBM
Form: double-stranded DNA, one strand shown
Sample: in vitro
Concentration: 600 nM
Setting: 8-mer, flanks averaged, mean of replicates
Reading: higher = stronger binding
| Oligonucleotide | E-score |
| --- | --- |
| AAAAGAGG | 0.0462 |
| ACCACCCC | -0.252 |
| AGGCGTAA | -0.0422 |
| CACAAAGC | -0.00301 |
| ATCAGAGC | -0.0231 |
| GCGCGGCA | -0.255 |
| AGAAGCCG | -0.236 |
| CTACCGAG | -0.223 |
| CTGCTTAC | -0.0863 |
| CGGCCAAG | -0.271 |
| CAACAGCC | -0.128 |
| AGAGCACG | -0.185 |
| AACCAGTC | -0.00547 |
| GAATCGGC | -0.0774 |
| AGCCACGG | -0.339 |
| TCCATTCA | 0.12 |

Excerpt of the above (study 6):
| Oligonucleotide | E-score |
| --- | --- |
| AGGCGTAA | -0.0422 |
| AAAAGAGG | 0.0462 |
| CAACAGCC | -0.128 |
| TCCATTCA | 0.12 |
| ACCACCCC | -0.252 |
| GCGCGGCA | -0.255 |
